Results of several laboratories.
Each line is one published result; not all experiments were run side by side. Values joined by “and” are separate records of one study, mostly repeats; a detail may differ. ± gives the spread as reported. Converted amounts (≈) assume the structure as drawn.

SMILES = C[C@@H]1CC[C@H]2[C@@H](C)C(=O)O[C@@H]3O[C@@]4(C)CC[C@@H]1[C@]32OO4; organism = Plasmodium berghei; test = Peters suppressive test; test system = ANKA, infected mice; conditions = oral, 4 x 30 mg/kg, day 4; scale = reference: untreated control; measurement = parasitemia reduction; value = 99%
SMILES = Nc1ncnc2c1ncn2[C@@H]1O[C@@H]2COP(=O)(O)O[C@H]3[C@@H](O)[C@H](n4cnc5c(=O)[nH]cnc54)O[C@@H]3COP(=O)(O)O[C@H]2[C@H]1O; organism = West Nile virus; test = RNA sequencing Reactome analysis, refers to: Antigen processing-Cross presentation (R-HSA-1236975); test system = HFF-1; conditions = concentration not given, upregulated pathways, together with: West Nile virus infection; scale = reference: WNV-infected without compound; measurement = fold enrichment; value = 4.92
SMILES = CC[C@H](C)[C@H](NC(=O)[C@H](C)NC(=O)[C@H](CCCCN)NC(=O)[C@H](CC(C)C)NC(=O)[C@H](C)NC(=O)[C@@H](NC(=O)[C@H](Cc1c[nH]cn1)NC(=O)[C@H](CC(C)C)NC(=O)[C@@H](NC(=O)[C@@H](NC(=O)[C@H](CCCCN)NC(=O)[C@H](C)NC(=O)[C@H](C)NC(=O)[C@H](CO)NC(=O)[C@H](CCCCN)NC(=O)[C@H](Cc1ccccc1)NC(=O)[C@@H](NC(=O)[C@H](CCCCN)NC(=O)[C@H](CC(C)C)NC(=O)[C@H](Cc1ccccc1)NC(=O)[C@H](CO)NC(=O)[C@H](CCCCN)NC(=O)[C@H](Cc1c[nH]c2ccccc12)NC(=O)[C@H](CCCCN)NC(C)=O)[C@@H](C)O)[C@@H](C)O)C(C)C)[C@@H](C)O)C(=O)N[C@@H](CO)C(=O)N[C@@H](CO)C(N)=O; organism = Streptococcus pyogenes; test system = ATCC 19615; conditions = 1 strain; measurement = MBC90; value = 16 µg/mL (≈ 5.45 µM)
SMILES = Cn1c(=O)ccc2ccc(F)c(CCNC[C@H]3CN(c4cnc5c(n4)NC(=O)CO5)C(=O)O3)c21; organism = Proteus spp.; measurement = MIC90; value = 0.5 µg/mL (≈ 1.07 µM)
SMILES = CN(C)c1nc(NCc2cccc(F)c2)c(/N=N/c2ccc(Cl)cc2)c(N(C)C)n1; organism = Plutella xylostella; test = leaf dipping; conditions = 200 mg/L, 96 h; measurement = mortality; value = 83.3 ± 5.8%
SMILES = COc1ccc(C[C@H](NC(=O)[C@H](C)NC(=O)CN2CCOCC2)C(=O)N[C@@H](Cc2ccccc2)C(=O)C2(C)CO2)cc1 (stereo in doubt); organism = Plasmodium berghei; test system = ANKA, mouse; conditions = oral; measurement = minimum effective dose; value = 10 mg/kg
SMILES = N=C(N)NCCC[C@H](NC(=O)[C@@H](N)CCCNC(=N)N)C(=O)N[C@@H](Cc1c[nH]c2ccccc12)C(=O)N[C@@H](Cc1c[nH]c2ccccc12)C(=O)N[C@@H](Cc1ccccc1)C(=O)N[C@@H](CCC(N)=O)C(=O)N[C@@H](Cc1ccccc1)C(=O)N[C@@H](CCC(N)=O)C(=O)N[C@@H](Cc1ccccc1)C(=O)N[C@@H](CCCCN)C(N)=O; organism = Bacillus subtilis; measurement = MBC; value = 140 µM (≈ 214 µg/mL)
SMILES = CO/C1=C\C(C)=C\[C@@H](C)[C@@H](O)[C@@H](C)C/C(C)=C/C=C/[C@H](OC)[C@@H]([C@@H](C)[C@@H](O)[C@H](C)[C@@]2(O)C[C@@H](O)[C@H](C)[C@@H](C(C)C)O2)OC1=O; organism = Apostichopus japonicus; test = BCECF-AM flow cytometry; test system = coelomocytes; conditions = concentration not given, 24 and 48 h; measurement = phagosome acidification; value = no effect
SMILES = C[C@H]1COCCN1c1nc(NCc2cccnc2C(F)(F)F)c2cccnc2n1; organism = Brugia malayi; test system = SCID mouse; conditions = dose not given, 6 weeks post-treatment, dosing x14d; measurement = total adult worm count; value = 18
SMILES = Nc1c([N+](=O)[O-])oc2ccc3ccccc3c12; organism = Mycobacterium marinum; test = REMA; test system = ATCC BAA-535; measurement = MIC90; value = 4 µg/mL (≈ 17.5 µM)
SMILES = O=[N+]([O-])c1c[nH]c(-c2nc(-c3ccc(OC4CCCC4)cc3)no2)n1; organism = Gram-negative bacteria; conditions = concentration not given; measurement = antibacterial activity; value = inactive
SMILES = Cn1cc(NC(=O)c2cc(NC(=O)CN=C(N)N)cn2C)cc1C(=O)NCCC(=N)N; organism = Bacillus subtilis; test = bacterial cytological profiling; test system = ATCC 6633; conditions = concentration not given; measurement = DNA area; value = 1.52 µm² and 1.53 µm² and 1.8 µm²
SMILES = COc1cc[nH]c1/C=C1\C(=O)Nc2ccc([N+](=O)[O-])c(N3CC[C@@H](O)C3)c21; organism = human cytomegalovirus; test = western blot densitometry, refers to: IE2-86 and IE2-60; test system = HFF, AD169; conditions = 0.01 µM; scale = reference: DMSO; measurement = fold decrease in protein level; value = ~2 fold
